Measured values of several laboratories.
Compare with care: the assays were run in different laboratories. “And” joins repeats or separate records; there may be more than shown.
Method: steady-state kinetics
B1: UGT1A9 (Homo sapiens, UniProt O60656); chain GKLLVVPMDGSHWFTMRSVVEKLILRGHEVVVVMPEVSWQLGRSLNCTVKTYSTSYTLEDLDREFKAFAHAQWKAQVRSIYSLLMGSYNDIFDLFFSNCRSLFKDKKLVEYLKESSFDAVFLDPFDNCGLIVAKYFSLPSVVFARGILCHYLEEGAQCPAPLSYVPRILLGFSDAMTFKERVRNHIMHLEEHLLCHRFFKNALEIASEILQTPVTEYDLYSHTSIWLLRTDFVLDYPKPVMPNMIFIGGINCHQGKPLPMEFEAYINASGEHGIVVFSLGSMVSEIPEKKAMAIADALGKIPQTVLWRYTGTRPSNLANNTILVKWLPQNDLLGHPMTRAFITHAGSHGVYESICNGVPMVMMPLFGDQMDNAKRMETKGAGVTLNVLEMTSEDLENALKAVINDKSYKENIMRLSSLHKDRPVEPLDLAVFWVEFVMRHKGAPHLRPAAHDLTWYQYHSLDVIGFLLAVVLTVAFITFKCCAYGYRKCLGKKGRVKKAHKSKTH
B2: FMO3 V257M (Homo sapiens, UniProt P31513); chain GKKVAIIGAGVSGLASIRSCLEEGLEPTCFEKSNDIGGLWKFSDHAEEGRASIYKSVFSNSSKEMMCFPDFPFPDDFPNFMHNSKIQEYIIAFAKEKNLLKYIQFKTFVSSVNKHPDFATTGQWDVTTERDGKKESAVFDAVMVCSGHHVYPNLPKESFPGLNHFKGKCFHSRDYKEPGVFNGKRVLVVGLGNSGCDIATELSRTAEQVMISSRSGSWVMSRVWDNGYPWDMLLVTRFGTFLKNNLPTAISDWLYMKQMNARFKHENYGLMPLNGVLRKEPVFNDELPASILCGIVSVKPNVKEFTETSAIFEDGTIFEGIDCVIFATGYSFAYPFLDESIIKSRNNEIILFKGVFPPLLEKSTIAVIGFVQSLGAAIPTVDLQSRWAAQVIKGTCTLPSMEDMMNDINEKMEKKRKWFGKSETIQTDYIVYMDELSSFIGAKPNIPWLFLTDPKLAMEVYFGPCSPYQFRLVGPGQWPGARNAILTQWDRSLKPMQTRVVGRLQKPCFFFHWLKLFAIPILLIAVFLVLT
B3: enzyme D382A (Arabidopsis thaliana, UniProt O82390); chain MNARALLCSSNIHSLYTSNRPPEKTSSSRSLRNLKPSPKSLRVWIYPRNRSSVFRVLVRSSDKSESSNSYYVEGDKVSGNNDVVSDSPSSIVLPWWEEFPKRWVIVLLCFSAFLLCNMDRVNMSIAILPMSAEYGWNPATVGLIQSSFFWGYLLTQIAGGIWADTVGGKRVLGFGVIWWSIATILTPVAAKLGLPYLLVVRAFMGVGEGVAMPAMNNILSKWVPVQERSRSLALVYSGMYLGSVTGLAFSPFLIHQFGWPSVFYSFGSLGTVWLTLWLTKAESSPLEDPTLLPEERKLIADNCASKEPVKSIPWRLILSKPPVWALISCHFCHNWGTFILLTWMPTYYHQVLKFNLMESGLLSVFPWMTMAISANAGGWIAATLVSRGFSVTNVRKIMQTIGFLGPAFFLTQLKHIDSPTMAVLCMACSQGTDAFSQSGLYSNHQDIAPRYSGVLLGLSNTAGVLAGVLGTAATGHILQHGSWDDVFTISVGLYLVGTVIWNLFSTGEKIID
B4: CMBL (Homo sapiens, UniProt Q96DG6); chain MANEAYPCPCDIGHRLEYGGLGREVQVEHIKAYVTKSPVDAGKAVIVIQDIFGWQLPNTRYIADMISGNGYTTIVPDFFVGQEPWDPSGDWSIFPEWLKTRNAQKIDREISAILKYLKQQCHAQKIGIVGFCWGGTAVHHLMMKYSEFRAGVSVYGIVKDSEDIYNLKNPTLFIFAENDVVIPLKDVSLLTQKLKEHCKVEYQIKTFSGQTHGFVHRKREDCSPADKPYIDEARRNLIEWLNKYM
B5: enzyme S124A (Arabidopsis thaliana, UniProt O82390); chain MNARALLCSSNIHSLYTSNRPPEKTSSSRSLRNLKPSPKSLRVWIYPRNRSSVFRVLVRSSDKSESSNSYYVEGDKVSGNNDVVSDSPSSIVLPWWEEFPKRWVIVLLCFSAFLLCNMDRVNMAIAILPMSAEYGWNPATVGLIQSSFFWGYLLTQIAGGIWADTVGGKRVLGFGVIWWSIATILTPVAAKLGLPYLLVVRAFMGVGEGVAMPAMNNILSKWVPVQERSRSLALVYSGMYLGSVTGLAFSPFLIHQFGWPSVFYSFGSLGTVWLTLWLTKAESSPLEDPTLLPEERKLIADNCASKEPVKSIPWRLILSKPPVWALISCHFCHNWGTFILLTWMPTYYHQVLKFNLMESGLLSVFPWMTMAISANAGGWIADTLVSRGFSVTNVRKIMQTIGFLGPAFFLTQLKHIDSPTMAVLCMACSQGTDAFSQSGLYSNHQDIAPRYSGVLLGLSNTAGVLAGVLGTAATGHILQHGSWDDVFTISVGLYLVGTVIWNLFSTGEKIID
B6: UGT3A2 Y474C (Homo sapiens, UniProt Q3SY77); chain AKILTISTVGGSHYLLMDRVSQILQDHGHNVTMLNHKRGPFMPDFKKEEKSYQVISWLAPEDHQREFKKSFDFFLEETLGGRGKFENLLNVLEYLALQCSHFLNRKDIMDSLKNENFDMVIVETFDYCPFLIAEKLGKPFVAILSTSFGSLEFGLPIPLSYVPVFRSLLTDHMDFWGRVKNFLMFFSFCRRQQHMQSTFDNTIKEHFTEGSRPVLSHLLLKAELWFINSDFAFDFARPLLPNTVYVGGLMEKPIKPVPQDLENFIAKFGDSGFVLVTLGSMVNTCQNPEIFKEMNNAFAHLPQGVIWKCQCSHWPKDVHLAANVKIVDWLPQSDLLAHPSIRLFVTHGGQNSIMEAIQHGVPMVGIPLFGDQPENMVRVEAKKFGVSIQLKKLKAETLALKMKQIMEDKRYKSAAVAASVILRSHPLSPTQRLVGWIDHVLQTGGATHLKPCVFQQPWHEQYLLDVFVFLLGLTLGTLWLCGKLLGMAVWWLRGARKVKET
B7: FMO3 D132H (Homo sapiens, UniProt P31513); chain GKKVAIIGAGVSGLASIRSCLEEGLEPTCFEKSNDIGGLWKFSDHAEEGRASIYKSVFSNSSKEMMCFPDFPFPDDFPNFMHNSKIQEYIIAFAKEKNLLKYIQFKTFVSSVNKHPDFATTGQWDVTTERHGKKESAVFDAVMVCSGHHVYPNLPKESFPGLNHFKGKCFHSRDYKEPGVFNGKRVLVVGLGNSGCDIATELSRTAEQVMISSRSGSWVMSRVWDNGYPWDMLLVTRFGTFLKNNLPTAISDWLYVKQMNARFKHENYGLMPLNGVLRKEPVFNDELPASILCGIVSVKPNVKEFTETSAIFEDGTIFEGIDCVIFATGYSFAYPFLDESIIKSRNNEIILFKGVFPPLLEKSTIAVIGFVQSLGAAIPTVDLQSRWAAQVIKGTCTLPSMEDMMNDINEKMEKKRKWFGKSETIQTDYIVYMDELSSFIGAKPNIPWLFLTDPKLAMEVYFGPCSPYQFRLVGPGQWPGARNAILTQWDRSLKPMQTRVVGRLQKPCFFFHWLKLFAIPILLIAVFLVLT
Sequence of UniProt H6U1I8 (whole entry, looked up): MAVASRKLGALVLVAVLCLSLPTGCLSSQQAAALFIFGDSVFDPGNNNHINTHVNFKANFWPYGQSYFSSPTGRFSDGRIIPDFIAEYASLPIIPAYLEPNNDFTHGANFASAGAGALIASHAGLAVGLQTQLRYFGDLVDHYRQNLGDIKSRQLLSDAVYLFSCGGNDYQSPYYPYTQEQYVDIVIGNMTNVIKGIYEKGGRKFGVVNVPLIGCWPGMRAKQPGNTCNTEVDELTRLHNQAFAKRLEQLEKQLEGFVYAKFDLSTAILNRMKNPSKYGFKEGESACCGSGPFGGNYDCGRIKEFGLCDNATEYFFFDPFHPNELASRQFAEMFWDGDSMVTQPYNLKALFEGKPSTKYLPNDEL
Sequence of UniProt Q01740 (whole entry, looked up): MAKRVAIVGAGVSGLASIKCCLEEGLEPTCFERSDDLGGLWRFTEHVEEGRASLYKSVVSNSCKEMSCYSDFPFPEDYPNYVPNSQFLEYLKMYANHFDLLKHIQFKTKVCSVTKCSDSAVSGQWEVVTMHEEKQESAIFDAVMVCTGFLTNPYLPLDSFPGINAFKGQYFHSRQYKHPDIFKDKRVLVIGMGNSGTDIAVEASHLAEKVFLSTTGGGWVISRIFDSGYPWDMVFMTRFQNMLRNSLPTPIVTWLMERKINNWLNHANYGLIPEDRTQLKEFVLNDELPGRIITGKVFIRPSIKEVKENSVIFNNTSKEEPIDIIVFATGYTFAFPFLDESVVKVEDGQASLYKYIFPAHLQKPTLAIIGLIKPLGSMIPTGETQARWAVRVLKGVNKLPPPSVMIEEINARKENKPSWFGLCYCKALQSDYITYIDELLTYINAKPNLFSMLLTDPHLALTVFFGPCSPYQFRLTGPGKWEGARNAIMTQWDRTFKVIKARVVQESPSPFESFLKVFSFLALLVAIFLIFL
Sequence of UniProt P11509 (whole entry, looked up): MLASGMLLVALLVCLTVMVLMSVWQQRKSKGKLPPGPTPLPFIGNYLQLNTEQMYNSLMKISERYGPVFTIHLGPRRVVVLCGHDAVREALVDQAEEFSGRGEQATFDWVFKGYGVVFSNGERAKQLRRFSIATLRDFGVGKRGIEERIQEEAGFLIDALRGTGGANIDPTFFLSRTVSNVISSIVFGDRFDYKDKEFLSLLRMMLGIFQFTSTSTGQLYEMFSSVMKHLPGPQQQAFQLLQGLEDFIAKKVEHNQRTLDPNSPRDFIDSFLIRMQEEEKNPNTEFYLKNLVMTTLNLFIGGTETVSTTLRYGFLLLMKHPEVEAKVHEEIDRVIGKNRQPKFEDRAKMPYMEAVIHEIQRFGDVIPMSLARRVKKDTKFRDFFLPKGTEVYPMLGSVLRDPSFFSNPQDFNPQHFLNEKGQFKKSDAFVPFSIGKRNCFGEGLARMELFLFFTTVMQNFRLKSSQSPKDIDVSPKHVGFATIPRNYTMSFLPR
Sequence of UniProt P10632 (whole entry, looked up): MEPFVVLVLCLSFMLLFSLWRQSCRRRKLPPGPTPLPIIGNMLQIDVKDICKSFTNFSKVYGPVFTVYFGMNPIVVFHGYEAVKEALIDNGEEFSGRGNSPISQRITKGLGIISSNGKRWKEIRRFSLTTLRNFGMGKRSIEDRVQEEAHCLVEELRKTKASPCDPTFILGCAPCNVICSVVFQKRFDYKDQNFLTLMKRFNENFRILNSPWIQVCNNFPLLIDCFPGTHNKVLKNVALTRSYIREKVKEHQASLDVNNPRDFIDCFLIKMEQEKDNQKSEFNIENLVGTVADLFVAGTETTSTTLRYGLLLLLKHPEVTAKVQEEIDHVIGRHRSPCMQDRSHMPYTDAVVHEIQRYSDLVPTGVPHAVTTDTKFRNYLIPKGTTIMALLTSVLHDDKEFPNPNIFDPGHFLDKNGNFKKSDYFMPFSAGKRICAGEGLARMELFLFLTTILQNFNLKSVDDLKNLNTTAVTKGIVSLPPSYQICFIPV

Substance	substrate	test system	conditions	Vmax/Km
B1 (UGT1A9)	O=c1c(O)c(-c2ccc(O)c(O)c2)oc2cc(O)ccc12		pH 7.4, 37 °C	3090 µL/min/mg and 3520 µL/min/mg and 2300 µL/min/mg
B2 (FMO3 V257M)	CN1CCC[C@H]1c1cccnc1	HEK293 microsomes	37 °C, not purified, with: NADPH regenerating system	0.0068 µL/min/mg
CYP2C8 (Homo sapiens, UniProt P10632)	COc1cc2c(cc1CC=C(C)C)C(=O)C[C@@H](c1ccc(O)cc1)O2		pH 7.4, 37 °C	182 µL/min/mg
B3 (enzyme D382A)	O=P(O)(O)O		pH 6.5, 25 °C, apparent, not purified	46.7 µL/min/mg
enzyme (Tanacetum cinerariifolium, UniProt H6U1I8)	C=C/C=C\CC1=C(C)[C@@H](O)CC1=O		pH 7.5, 25 °C	410 µL/min/mg
B4 (CMBL)	Cc1oc(=O)oc1COC(=O)C1=C([C@H]2CCCO2)S[C@@H]2[C@@H]([C@@H](C)O)C(=O)N12	lysate	pH 7.4, 37 °C, not purified	58 µL/min/mg
FMO1 (Homo sapiens, UniProt Q01740)	CN1CCC[C@H]1c1cccnc1	HEK293 microsomes	37 °C, not purified, with: NADPH regenerating system	0.0155 µL/min/mg
CYP2A6 (Homo sapiens, UniProt P11509)	CN1C(=O)CC[C@H]1c1cccnc1	microsomes	pH 6.7, cotinine to COX, not purified	0.044 µL/min/mg
enzyme (Candida albicans, UniProt A0A1D8PHX1)	CCCCC/C=C\C/C=C\CCCCCCCC(=O)SCCNC(=O)CCNC(=O)[C@H](O)C(C)(C)COP(=O)(O)OP(=O)(O)OC[C@H]1O[C@@H](n2cnc3c(N)ncnc32)[C@H](O)[C@@H]1OP(=O)(O)O		pH 7.4, 37 °C, apparent, not purified	190 µL/min/mg
B5 (enzyme S124A)	O=P(O)(O)O		pH 6.5, 25 °C, apparent, not purified	18.3 µL/min/mg
B6 (UGT3A2 Y474C)	O=c1ccn([C@@H]2O[C@H](CO[P@@](=O)(O)O[P@@](=O)(O)O[C@H]3O[C@H](CO)[C@@H](O)[C@H](O)[C@H]3O)[C@@H](O)[C@H]2O)c(=O)[nH]1		pH 7.4, 37 °C, not purified, with: 1-OH-pyrene 16 µM, MgCl2 10 mM, alamethicin	0.032 µL/min/mg
B7 (FMO3 D132H)	CN1CCC[C@H]1c1cccnc1	HEK293 microsomes	37 °C, not purified, with: NADPH regenerating system	0.0039 µL/min/mg
enzyme (Oryctolagus cuniculus, UniProt A0A5F9DQ59)	O=c1oc2c(O)c(O)ccc2cc1-c1nc2ccccc2s1		pH 7.4, 37 °C	235 µL/min/mg

For quick reference, copied from above:
Substance	substrate	test system	conditions	Vmax/Km
B7 (FMO3 D132H)	CN1CCC[C@H]1c1cccnc1	HEK293 microsomes	37 °C, not purified, with: NADPH regenerating system	0.0039 µL/min/mg
